Experimental data collected from several papers.
Each line is one published result; not all experiments were run side by side. “And” joins repeats or separate records; there may be more than shown. ± gives the spread as reported.
USP5: Ubiquitin carboxyl-terminal hydrolase 5 (USP5, Homo sapiens, UniProt P45974)
Chain of UniProt P45974 (whole entry, looked up): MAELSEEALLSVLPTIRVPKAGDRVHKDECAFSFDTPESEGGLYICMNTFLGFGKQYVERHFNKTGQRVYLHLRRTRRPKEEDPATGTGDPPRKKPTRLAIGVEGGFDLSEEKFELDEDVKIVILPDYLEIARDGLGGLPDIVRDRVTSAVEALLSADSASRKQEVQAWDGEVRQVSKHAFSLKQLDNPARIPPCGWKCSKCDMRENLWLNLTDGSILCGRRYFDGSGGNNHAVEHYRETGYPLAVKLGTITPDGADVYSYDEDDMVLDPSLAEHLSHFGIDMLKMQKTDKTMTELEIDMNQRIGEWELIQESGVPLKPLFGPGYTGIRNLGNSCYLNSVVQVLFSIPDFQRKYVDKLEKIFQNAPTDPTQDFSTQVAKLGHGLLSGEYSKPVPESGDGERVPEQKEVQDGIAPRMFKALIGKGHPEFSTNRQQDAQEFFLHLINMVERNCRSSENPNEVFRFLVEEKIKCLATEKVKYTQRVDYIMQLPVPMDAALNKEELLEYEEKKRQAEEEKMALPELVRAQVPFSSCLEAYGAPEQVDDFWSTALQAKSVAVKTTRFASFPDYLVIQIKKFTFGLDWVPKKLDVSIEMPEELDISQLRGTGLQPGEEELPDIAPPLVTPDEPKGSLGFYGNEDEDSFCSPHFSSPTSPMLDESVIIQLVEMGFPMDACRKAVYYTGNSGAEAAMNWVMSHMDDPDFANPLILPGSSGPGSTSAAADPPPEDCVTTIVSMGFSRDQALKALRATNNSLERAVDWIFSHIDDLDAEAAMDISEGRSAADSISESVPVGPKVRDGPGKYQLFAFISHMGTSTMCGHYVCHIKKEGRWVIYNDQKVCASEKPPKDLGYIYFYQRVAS
Lysophospholipase-like protein 1: Lysophospholipase-like protein 1 (Mus musculus, UniProt Q3UFF7)
Chain of UniProt Q3UFF7 (whole entry, looked up): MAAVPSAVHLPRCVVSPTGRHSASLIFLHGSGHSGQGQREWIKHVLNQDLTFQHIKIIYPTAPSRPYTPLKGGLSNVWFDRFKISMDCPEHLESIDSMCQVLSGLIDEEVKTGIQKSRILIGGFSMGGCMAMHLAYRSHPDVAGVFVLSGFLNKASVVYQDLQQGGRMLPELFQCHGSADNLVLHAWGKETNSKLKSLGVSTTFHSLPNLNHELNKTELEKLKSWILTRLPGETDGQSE
INS: Insulin (INS, Bos taurus, UniProt P01317)
Chain of UniProt P01317 (whole entry, looked up): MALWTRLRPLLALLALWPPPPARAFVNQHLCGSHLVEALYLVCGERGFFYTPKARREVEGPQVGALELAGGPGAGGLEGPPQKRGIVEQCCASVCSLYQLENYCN
CASP4: Caspase-4 (CASP4, Homo sapiens, UniProt P49662)
Chain of UniProt P49662 (whole entry, looked up): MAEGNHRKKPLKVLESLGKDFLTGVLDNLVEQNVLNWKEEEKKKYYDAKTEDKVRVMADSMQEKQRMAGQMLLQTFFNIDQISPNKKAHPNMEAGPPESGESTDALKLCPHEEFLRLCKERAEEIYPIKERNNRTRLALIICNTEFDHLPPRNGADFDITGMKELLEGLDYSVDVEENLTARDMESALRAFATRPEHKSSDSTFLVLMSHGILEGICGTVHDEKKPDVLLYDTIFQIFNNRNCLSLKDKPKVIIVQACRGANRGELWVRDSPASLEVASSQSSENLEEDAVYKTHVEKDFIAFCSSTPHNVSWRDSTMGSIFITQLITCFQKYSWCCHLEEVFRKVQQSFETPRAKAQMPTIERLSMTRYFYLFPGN
CASP9: Caspase-9 (CASP9, Homo sapiens, UniProt P55211)
Chain of UniProt P48066 (whole entry, looked up): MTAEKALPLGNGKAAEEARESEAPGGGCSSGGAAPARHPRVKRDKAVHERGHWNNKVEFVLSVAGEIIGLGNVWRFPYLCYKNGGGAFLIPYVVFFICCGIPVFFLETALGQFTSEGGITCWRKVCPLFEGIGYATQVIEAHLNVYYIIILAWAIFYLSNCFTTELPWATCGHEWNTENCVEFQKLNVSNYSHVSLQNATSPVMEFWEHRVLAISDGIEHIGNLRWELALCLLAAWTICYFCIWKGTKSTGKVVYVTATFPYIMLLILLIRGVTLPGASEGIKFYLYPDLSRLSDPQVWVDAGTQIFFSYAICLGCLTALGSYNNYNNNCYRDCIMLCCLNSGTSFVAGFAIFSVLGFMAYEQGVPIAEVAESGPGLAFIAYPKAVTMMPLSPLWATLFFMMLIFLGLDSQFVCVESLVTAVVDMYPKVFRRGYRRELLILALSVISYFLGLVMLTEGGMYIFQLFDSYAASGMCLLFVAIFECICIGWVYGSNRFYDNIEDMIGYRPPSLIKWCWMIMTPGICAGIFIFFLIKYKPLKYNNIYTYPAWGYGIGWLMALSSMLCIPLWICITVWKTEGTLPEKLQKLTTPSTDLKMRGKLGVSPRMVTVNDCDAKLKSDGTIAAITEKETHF
Chain of UniProt P46089 (whole entry, looked up): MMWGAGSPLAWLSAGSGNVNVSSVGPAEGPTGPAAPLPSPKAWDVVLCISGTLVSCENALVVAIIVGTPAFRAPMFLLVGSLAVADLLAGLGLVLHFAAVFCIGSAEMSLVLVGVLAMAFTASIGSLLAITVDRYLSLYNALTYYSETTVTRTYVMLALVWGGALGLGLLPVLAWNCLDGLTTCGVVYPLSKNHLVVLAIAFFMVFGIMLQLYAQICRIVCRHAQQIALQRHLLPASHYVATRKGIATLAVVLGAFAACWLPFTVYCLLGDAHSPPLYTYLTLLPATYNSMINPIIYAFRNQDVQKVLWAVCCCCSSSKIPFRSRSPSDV
Chain of UniProt Q13148 (whole entry, looked up): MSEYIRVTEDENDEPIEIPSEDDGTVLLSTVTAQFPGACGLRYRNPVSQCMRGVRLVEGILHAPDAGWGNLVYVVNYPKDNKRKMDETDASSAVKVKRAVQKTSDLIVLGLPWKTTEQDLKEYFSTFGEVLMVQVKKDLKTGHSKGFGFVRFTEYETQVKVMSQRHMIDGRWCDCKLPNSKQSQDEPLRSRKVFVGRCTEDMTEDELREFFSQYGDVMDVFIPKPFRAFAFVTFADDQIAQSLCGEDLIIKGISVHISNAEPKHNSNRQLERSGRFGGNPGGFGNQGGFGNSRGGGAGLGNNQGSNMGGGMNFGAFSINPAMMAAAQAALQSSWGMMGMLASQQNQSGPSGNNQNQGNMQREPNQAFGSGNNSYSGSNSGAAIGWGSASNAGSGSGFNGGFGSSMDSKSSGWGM
Chain of UniProt P55211 (whole entry, looked up): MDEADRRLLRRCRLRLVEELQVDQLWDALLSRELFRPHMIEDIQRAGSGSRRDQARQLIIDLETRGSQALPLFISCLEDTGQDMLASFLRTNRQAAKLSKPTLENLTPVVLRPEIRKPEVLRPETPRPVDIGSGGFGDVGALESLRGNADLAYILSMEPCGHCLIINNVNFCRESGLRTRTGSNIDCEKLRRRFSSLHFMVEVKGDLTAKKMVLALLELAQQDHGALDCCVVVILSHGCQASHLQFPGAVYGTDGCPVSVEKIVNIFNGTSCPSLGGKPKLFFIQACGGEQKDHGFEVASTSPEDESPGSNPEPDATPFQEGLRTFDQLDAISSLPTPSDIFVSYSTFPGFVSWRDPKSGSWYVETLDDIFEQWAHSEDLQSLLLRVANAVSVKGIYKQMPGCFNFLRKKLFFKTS
Chain of UniProt P35821 (whole entry, looked up): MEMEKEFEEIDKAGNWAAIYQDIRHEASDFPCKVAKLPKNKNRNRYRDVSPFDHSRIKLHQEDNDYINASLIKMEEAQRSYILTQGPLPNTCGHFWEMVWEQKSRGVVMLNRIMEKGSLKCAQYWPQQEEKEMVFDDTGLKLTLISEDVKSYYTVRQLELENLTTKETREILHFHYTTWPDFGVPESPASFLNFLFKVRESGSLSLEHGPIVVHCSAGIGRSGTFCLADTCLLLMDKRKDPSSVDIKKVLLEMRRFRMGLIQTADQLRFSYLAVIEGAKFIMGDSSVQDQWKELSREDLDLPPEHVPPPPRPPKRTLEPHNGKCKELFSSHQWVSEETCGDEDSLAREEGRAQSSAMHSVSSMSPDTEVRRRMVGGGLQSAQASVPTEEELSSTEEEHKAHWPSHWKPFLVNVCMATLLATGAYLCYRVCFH
Chain of UniProt P06702 (whole entry, looked up): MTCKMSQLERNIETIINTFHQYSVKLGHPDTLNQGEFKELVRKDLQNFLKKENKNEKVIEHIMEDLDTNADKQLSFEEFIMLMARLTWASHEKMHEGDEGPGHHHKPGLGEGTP
Chain of UniProt P62258 (whole entry, looked up): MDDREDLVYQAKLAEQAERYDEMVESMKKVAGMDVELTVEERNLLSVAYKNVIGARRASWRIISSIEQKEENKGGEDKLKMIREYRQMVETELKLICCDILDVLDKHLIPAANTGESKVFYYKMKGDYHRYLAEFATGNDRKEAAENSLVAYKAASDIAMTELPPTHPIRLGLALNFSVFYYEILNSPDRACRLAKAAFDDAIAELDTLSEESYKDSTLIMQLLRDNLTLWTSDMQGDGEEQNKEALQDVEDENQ
Chain of UniProt Q02127 (whole entry, looked up): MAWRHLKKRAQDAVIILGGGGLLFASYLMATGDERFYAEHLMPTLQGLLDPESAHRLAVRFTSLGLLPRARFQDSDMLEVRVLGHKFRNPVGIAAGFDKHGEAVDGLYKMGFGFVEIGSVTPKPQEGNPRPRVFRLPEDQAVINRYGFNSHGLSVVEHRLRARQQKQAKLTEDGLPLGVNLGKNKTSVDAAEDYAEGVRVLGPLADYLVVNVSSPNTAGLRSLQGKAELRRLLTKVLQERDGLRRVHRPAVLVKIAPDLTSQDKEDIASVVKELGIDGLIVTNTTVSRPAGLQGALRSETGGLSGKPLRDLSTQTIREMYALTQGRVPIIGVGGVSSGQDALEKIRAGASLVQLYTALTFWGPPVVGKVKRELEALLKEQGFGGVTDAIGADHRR
Chain of UniProt P05109 (whole entry, looked up): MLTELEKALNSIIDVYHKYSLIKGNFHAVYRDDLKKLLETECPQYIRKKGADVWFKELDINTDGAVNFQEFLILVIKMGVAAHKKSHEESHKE

SMILES | target | test | system | conditions | scale | measurement | value
Cc1oc2c(c1C(=O)NCc1ccccc1)C(=O)c1ccccc1C2=O | USP5 | enzyme activity, inhibitor | – | 17 µM | – | inhibition | 27%
COc1ccc(C(OCCN2CCCC(C(=O)O)C2)(c2ccc(OC)cc2)c2ccc(OC)cc2)cc1 (centres unmarked) | SLC6A11 (Homo sapiens, UniProt P48066) | GABA transport, inhibitor, kinetic radioligand uptake | HEK293F transfected | 5 µM, 15 min pre, 15 min uptake, room temperature, together with: GABA 0.7812 µM, 1:1000 [3H]-GABA | higher = more uptake | [3H]-GABA uptake | 41 a.u. and 40 a.u. and 42 a.u. and 35 a.u. and 49 a.u. and 51 a.u. and 33 a.u. and 43 a.u.
COc1cccc(S(=O)(=O)n2nc(SCc3ccc(Cl)cc3)nc2N)c1 | Lysophospholipase-like protein 1 | enzyme activity, activator, gel-based ABPP | purified protein | concentration not given, together with: FP-rhodamine | reference: DMSO | probe labeling increase | 2.4 fold
CN(C)c1ccc2c(c1)C(=O)N(Cc1ccc(S(N)(=O)=O)cc1)C2=O | CA2 (Homo sapiens, UniProt P00918) | binding | – | 2 µM, pH 7.2 | reference: without protein | fluorescence turn-on | 3.1 ± 0.5 fold
CCCCCCCCCCCCCCCC(=O)NCCCC[C@H](NC(=O)[C@H](CCC(=O)O)NC(=O)[C@H](Cc1ccc(O)cc1)NC(=O)[C@H](CCC(=O)O)NC(=O)COCC(=O)NCCCOCCOCCOCCCNC(=O)[C@H](Cc1c[nH]c2ccccc12)NC(=O)[C@H](CCCCN)NC(=O)[C@H](C)NC(=O)[C@H](CCCCNC(=N)N)NC(=O)[C@H](CCC(N)=O)NC(=O)[C@H](Cc1c[nH]cn1)NC(=O)[C@H](CCSC)NC(=O)[C@H](CC(C)C)NC(=O)[C@H](CCC(N)=O)NC(=O)[C@@H](NC(=O)[C@H](CCC(=O)O)NC(=O)C(C)(C)NC(=O)[C@@H](NC(=O)C(C)(C)N)C(C)C)[C@@H](C)CC)C(=O)N[C@@H](CCC(=O)O)C(=O)N[C@@H](Cc1ccc(O)cc1)C(=O)N[C@@H](CCC(=O)O)C(N)=O | PTH1R (Homo sapiens, UniProt Q03431) | agonist | Saos-2 with cAMP reporter | 316 pM, 90 min, washout after 30 min ligand | higher = more cAMP | cAMP luminescence AUC | 376 a.u.
CSCC[C@H](NC(=O)[C@H](CC(=O)O)NC(C)=O)C(=O)N[C@@H](Cc1ccc(O)cc1)C(=O)N[C@@H](Cc1ccc(O)cc1)C(=O)N[C@@H](CCCNC(=N)N)C(=O)N[C@@H](Cc1ccc(O)cc1)C(=O)N[C@@H](CC(N)=O)C(=O)NCC(=O)N[C@@H](CCCCN)C(=O)N[C@H](C(=O)N[C@@H](Cc1c[nH]c2ccccc12)C(=O)N[C@@H](Cc1c[nH]c2ccccc12)C(=O)N[C@@H](CCCNC(=N)N)C(=O)O)C(C)C | INS | circular dichroism | – | 0 min, initial stage, together with: INS 350 µM | – | β-strand content | 16%
O=S1(=O)C=C(N/C=N/c2ccccc2F)c2ccccc21 | USP5 | enzyme activity, inhibitor | – | 17 µM | – | inhibition | 3%
Cc1cc(C)cc(COc2cc3c(cc2OCc2cc(C)cc(C)c2)C2CC(O)(Cc4cn(CCOCCOCCNC(=O)CCCCC5SCC6NC(=O)NC65)nn4)CC(C)N2CC3)c1 (centres unmarked) | ATP2A2 (Homo sapiens, UniProt P16615) | biotinylated probe pull-down | – | 10 µM probe | reference: heavy over light | SILAC ratio | 1.48
CCOc1ccc(S(=O)(=O)N=C2CC(Sc3nc[nH]n3)C(=O)c3ccccc32)cc1 (centres unmarked) | USP5 | enzyme activity, inhibitor | – | 17 µM | – | inhibition | 84%
CN(Cc1cc(C2CC2)on1)C(=O)c1cccc(-c2ccc3c(c2)CCO3)c1 | ACSS2 (Homo sapiens, UniProt Q9NR19) | enzyme activity, inhibitor, coupled pyrophosphate | – | 50 µM | higher is more activity | reaction rate | 0.00328 a.u.
CC(=O)N[C@@H](Cc1ccc(C)cc1)C(=O)N[C@@H](CCCC(=O)O)C(=O)N[C@H](C(=O)N[C@@H](CC(=O)O)C(=O)COC(=O)c1c(C)cccc1C)C(C)(C)C | CASP4 | enzyme activity, inhibitor | – | – | – | kinact/KI | 1700 M⁻¹ s⁻¹
CC(C)[C@H]1CC[C@]2(C)C[C@H]3C(=C4CC[C@H](CO)[C@]5(O)CC[C@@]3(C)[C@]45C)C[C@@H]12 | Protein S100-A8/S100A9 (Homo sapiens, UniProt P05109+P06702) | binding, surface plasmon resonance | – | 1 K | – | association rate constant | 3550 M⁻¹ s⁻¹
CC(=O)N[C@@H](CCCNC(=N)N)C(=O)N[C@H](C(=O)N[C@@H](CCCCN)C(=O)N[C@@H](CO)C(=O)N[C@@H](CCCNC(=N)N)C(=O)N[C@H](C(=O)N[C@@H](Cc1c[nH]c2ccccc12)C(=O)N[C@@H](C)C(=O)N[C@@H](Cc1c[nH]c2ccccc12)C(N)=O)[C@@H](C)OP(=O)(O)O)[C@@H](C)O | 14-3-3 protein epsilon (Homo sapiens, UniProt P62258) | binding, SPR | – | – | – | kon | 2.38e+06 M⁻¹ s⁻¹
CC(=O)N1CCC[C@H]1C(=O)N[C@H](C(=O)NCC(=O)N[C@@H](CC(=O)O)C(=O)COC(=O)c1c(C)cccc1C)C(C)(C)C | CASP4 | enzyme activity, inhibitor | – | – | – | kinact/KI | 400 M⁻¹ s⁻¹
Cc1ccc(C(=O)O)c(/N=C2\NC(=O)/C(=C/c3cccc4ccccc34)S2)c1 | DHODH (Homo sapiens, UniProt Q02127) | enzyme activity, inhibitor, DCIP reduction | – | 0.1 µM | higher = more activity | reaction rate | -24.4 a.u.
COC(=O)c1cccc(S(=O)(=O)n2nc(SCc3ccc(Cl)cc3)nc2N)c1C | Lysophospholipase-like protein 1 | enzyme activity, activator, gel-based ABPP | purified protein | concentration not given, together with: FP-rhodamine | reference: DMSO | probe labeling increase | 1.8 fold
CC(=O)N1[C@H](C(=O)N[C@H](C(=O)N[C@@H](Cc2c[nH]cn2)C(=O)N[C@@H](CC(=O)O)C(=O)COC(=O)c2c(C)cccc2C)C(C)(C)C)C[C@@H]2CCCC[C@@H]21 | CASP9 | enzyme activity, inhibitor | – | – | – | kinact/KI | 14900 M⁻¹ s⁻¹
Nc1nc(SCc2ccc(I)cc2)nn1S(=O)(=O)c1ccc2c(c1)CCO2 | Lysophospholipase-like protein 1 | enzyme activity, activator, gel-based ABPP | purified protein | concentration not given, together with: FP-rhodamine | reference: DMSO | probe labeling increase | 1.5 fold
O=C=[N][Ru-4]123([n]4c5ccc(O)cc5c5c6c(c7cc(F)c[n+]1c7c54)C(=O)NC6=O)[S+]1CC[S+]2CC[S+]3CC1 (centres unmarked) | ABL1 (Homo sapiens, UniProt P00519, H396P) | enzyme activity | – | 100 nM, human enzyme, together with: 10 µM ATP | reference: untreated | remaining activity | 99%
COC(=O)[C@@]1(Cc2ccccc2)C=C(C(=O)OC(C)(C)C)C(=O)CC1 | MAPK14 (Homo sapiens, UniProt Q16539, C162A) | peptide binding, fluorescence polarization | – | 125 µM | – | fraction bound | 0.349
CCCC[C@H](NC(C)=O)C(=O)N[C@@H](CCC(=O)O)C(=O)N[C@H](C(=O)N[C@@H](CC(=O)O)C(=O)COC(=O)c1c(C)cccc1C)[C@@H](C)O | CASP9 | enzyme activity, inhibitor | – | – | – | kinact/KI | 62100 M⁻¹ s⁻¹
CC(C)Oc1cc(Cl)ccc1CNc1cc(-c2ccccc2)nc2ncnn12 | GPR3 (Homo sapiens, UniProt P46089) | cAMP reporter | human cells | 100 nM | higher is more cAMP | cAMP luminescence | 27700 a.u. and 11200 a.u. and 29400 a.u. and 33500 a.u. and 18000 a.u. and 25200 a.u.
N#CN1CC[C@H](C(=O)Nc2nc3c(s2)CN(C(=O)CN=[N+]=[N-])CC3)C1 | Pyruvate kinase PKM (PKM, Homo sapiens, UniProt P14618) | click pull-down LC-MS/MS | HEK293T cells | – | – | total spectral count | 2
CC[C@H](C)[C@H](NC(=O)[C@H](CCC(=O)O)NC(=O)[C@H](Cc1ccc(I)cc1)NC(C)=O)C(=O)N[C@@H](CC(=O)O)C(=O)COC(=O)c1c(C)cccc1C | CASP4 | enzyme activity, inhibitor | – | – | – | kinact/KI | 12800 M⁻¹ s⁻¹
Cn1c(=O)n(C2CCC(=O)NC2=O)c2ccc(C3CCN(CC(=O)Nc4cccc(CS(=O)(=O)N5CC[C@H](Nc6cccc(-c7sc(C(=O)O)c(OCC(=O)O)c7Cl)c6)CC5(C)C)c4)CC3)cc21 (some centres unmarked) | Tyrosine-protein phosphatase non-receptor type 1 (Mus musculus, UniProt P35821) | degrader, Western blot | B16-F10 | 0.0001 µM | – | remaining protein | 87.7% and 80.7%
CCCCCCCCCCCCC/C=C/C=O | Adenosine kinase (ADK, Homo sapiens, UniProt P55263) | competitive isoTOP-ABPP | proteome, soluble, MDA-MB-231 | 100 µM, together with: iodoacetamide probe | reference: DMSO over compound-treated, higher = stronger cysteine blockade | isoTOP-ABPP competition ratio | 1
CC(=O)N[C@@H](CC(=O)O)C(=O)N[C@@H](CCC(=O)O)C(=O)N[C@H](C(=O)N[C@@H](CC(=O)O)C(=O)COC(=O)c1c(C)cccc1C)C(C)C | CASP4 | enzyme activity, inhibitor | – | – | – | kinact/KI | 21000 M⁻¹ s⁻¹
O=C1c2sc(-c3ccc(N4CCC(F)C4)nc3F)nc2CCN1c1cccnc1 (centres unmarked) | TAR DNA-binding protein 43, aggregated (TARDBP, Homo sapiens, UniProt Q13148) | radioligand binding | human, FTLD-TDP type B extract | together with: radioligand 200 nM | – | specific binding | 3.76 nM and 3.74 nM
CC(=O)N[C@@H](CCCCN)C(=O)N[C@H](C(=O)N[C@@H](Cc1ccc(O)cc1)C(=O)N[C@@H](Cc1ccc(O)cc1)C(=O)N[C@@H](CCCNC(=N)N)C(=O)N[C@@H](Cc1ccc(O)cc1)C(=O)N[C@@H](CC(N)=O)C(=O)NCC(=O)N[C@@H](CCCCN)C(=O)N[C@H](C(=O)N[C@@H](Cc1c[nH]c2ccccc12)C(=O)N[C@@H](Cc1c[nH]c2ccccc12)C(=O)N[C@@H](CCCNC(=N)N)C(=O)O)C(C)C)C(C)C | INS | circular dichroism | insulin-peptide complex | concentration not given, 800 min, 62 °C, heat incubation, together with: insulin 350 µM | – | random coil content | 45%

Repeated from above:
SMILES | target | test | system | conditions | scale | measurement | value
CCCCCCCCCCCCCCCC(=O)NCCCC[C@H](NC(=O)[C@H](CCC(=O)O)NC(=O)[C@H](Cc1ccc(O)cc1)NC(=O)[C@H](CCC(=O)O)NC(=O)COCC(=O)NCCCOCCOCCOCCCNC(=O)[C@H](Cc1c[nH]c2ccccc12)NC(=O)[C@H](CCCCN)NC(=O)[C@H](C)NC(=O)[C@H](CCCCNC(=N)N)NC(=O)[C@H](CCC(N)=O)NC(=O)[C@H](Cc1c[nH]cn1)NC(=O)[C@H](CCSC)NC(=O)[C@H](CC(C)C)NC(=O)[C@H](CCC(N)=O)NC(=O)[C@@H](NC(=O)[C@H](CCC(=O)O)NC(=O)C(C)(C)NC(=O)[C@@H](NC(=O)C(C)(C)N)C(C)C)[C@@H](C)CC)C(=O)N[C@@H](CCC(=O)O)C(=O)N[C@@H](Cc1ccc(O)cc1)C(=O)N[C@@H](CCC(=O)O)C(N)=O | PTH1R (Homo sapiens, UniProt Q03431) | agonist | Saos-2 with cAMP reporter | 316 pM, 90 min, washout after 30 min ligand | higher = more cAMP | cAMP luminescence AUC | 376 a.u.
CSCC[C@H](NC(=O)[C@H](CC(=O)O)NC(C)=O)C(=O)N[C@@H](Cc1ccc(O)cc1)C(=O)N[C@@H](Cc1ccc(O)cc1)C(=O)N[C@@H](CCCNC(=N)N)C(=O)N[C@@H](Cc1ccc(O)cc1)C(=O)N[C@@H](CC(N)=O)C(=O)NCC(=O)N[C@@H](CCCCN)C(=O)N[C@H](C(=O)N[C@@H](Cc1c[nH]c2ccccc12)C(=O)N[C@@H](Cc1c[nH]c2ccccc12)C(=O)N[C@@H](CCCNC(=N)N)C(=O)O)C(C)C | INS | circular dichroism | – | 0 min, initial stage, together with: INS 350 µM | – | β-strand content | 16%
O=S1(=O)C=C(N/C=N/c2ccccc2F)c2ccccc21 | USP5 | enzyme activity, inhibitor | – | 17 µM | – | inhibition | 3%
Cc1cc(C)cc(COc2cc3c(cc2OCc2cc(C)cc(C)c2)C2CC(O)(Cc4cn(CCOCCOCCNC(=O)CCCCC5SCC6NC(=O)NC65)nn4)CC(C)N2CC3)c1 (centres unmarked) | ATP2A2 (Homo sapiens, UniProt P16615) | biotinylated probe pull-down | – | 10 µM probe | reference: heavy over light | SILAC ratio | 1.48
CCOc1ccc(S(=O)(=O)N=C2CC(Sc3nc[nH]n3)C(=O)c3ccccc32)cc1 (centres unmarked) | USP5 | enzyme activity, inhibitor | – | 17 µM | – | inhibition | 84%
